Literature values, collected from citations in different studies.
Lines come from different studies, so protocols differ.
Chain of UniProt Q8NFD2 (whole entry, looked up): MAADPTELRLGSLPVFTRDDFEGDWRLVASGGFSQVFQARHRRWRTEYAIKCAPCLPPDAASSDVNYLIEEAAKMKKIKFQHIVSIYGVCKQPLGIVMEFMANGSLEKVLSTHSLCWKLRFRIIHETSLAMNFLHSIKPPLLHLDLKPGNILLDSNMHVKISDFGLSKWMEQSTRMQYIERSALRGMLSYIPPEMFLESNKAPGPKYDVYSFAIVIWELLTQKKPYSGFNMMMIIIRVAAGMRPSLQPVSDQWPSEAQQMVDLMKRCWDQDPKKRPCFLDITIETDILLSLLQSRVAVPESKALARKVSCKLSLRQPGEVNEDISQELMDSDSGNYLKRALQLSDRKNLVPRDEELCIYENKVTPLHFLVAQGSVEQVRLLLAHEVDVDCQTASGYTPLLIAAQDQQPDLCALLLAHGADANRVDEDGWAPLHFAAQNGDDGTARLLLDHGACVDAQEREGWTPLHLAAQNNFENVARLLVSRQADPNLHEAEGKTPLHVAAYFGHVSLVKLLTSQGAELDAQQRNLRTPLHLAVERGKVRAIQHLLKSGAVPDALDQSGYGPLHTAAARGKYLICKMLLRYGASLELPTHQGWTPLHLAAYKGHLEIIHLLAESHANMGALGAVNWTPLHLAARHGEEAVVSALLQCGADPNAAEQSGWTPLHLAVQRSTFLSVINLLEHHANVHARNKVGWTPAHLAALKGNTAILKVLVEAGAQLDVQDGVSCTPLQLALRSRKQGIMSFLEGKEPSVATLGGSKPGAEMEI

Compound = Cc1cc(Nc2ncc(Cl)c(Nc3ccccc3S(=O)(=O)C(C)C)n2)c(OC(C)C)cc1C1CCNCC1; quantity = absorption rate constant ka; result = 0.4 h⁻¹
Compound = c1cnc2cc3c(cc2n1)[C@@H]1CNC[C@H]3C1; assay = PK model; setting = oral; quantity = absorption rate constant; result = 1.03 h⁻¹
Compound = C[C@@H]1CCO[C@H]2Cn3cc(C(=O)NCc4ccc(F)cc4F)c(=O)c(O)c3C(=O)N12; assay = population PK; system = treatment-naive adult patients; quantity = absorption rate constant; result = 2.24 h⁻¹
Compound = CC1(C)S[C@@H]2[C@H](NC(=O)[C@H](N)c3ccccc3)C(=O)N2[C@H]1C(=O)O; target or system = Acinetobacter baumannii; system = clinical isolate RKI-No_14/16; quantity = MIC; result = > 16 µg/mL
Compound = CO[C@H]1C[C@@H]2CC[C@@H](C)[C@@](O)(O2)C(=O)C(=O)N2CCCC[C@H]2C(=O)O[C@H]([C@H](C)C[C@@H]2CC[C@@H](OCCO)[C@H](OC)C2)CC(=O)[C@H](C)/C=C(\C)[C@@H](O)[C@@H](OC)C(=O)[C@H](C)C[C@H](C)/C=C/C=C/C=C/1C; system = plasma; setting = population PK two-compartment; quantity = absorption rate constant (ka); result = 6.07 h⁻¹
Compound = OC[C@H]1O[C@@H](Oc2cc3c(O)cc(O)cc3[o+]c2-c2cc(O)c(O)c(O)c2)[C@H](O)[C@@H](O)[C@@H]1O; system = solution; setting = with: Fe3+; quantity = absorption maximum; result = 664 nm
Compound = CCC(C)n1ncn(-c2ccc(N3CCN(c4ccc(OCC5COC(Cn6cncn6)(c6ccc(Cl)cc6Cl)O5)cc4)CC3)cc2)c1=O (stereo not drawn); setting = first-order absorption model; quantity = absorption rate constant; result = 1.1 h⁻¹
Compound = Nc1cc(C(F)(F)F)c(-c2nc(N3CCOCC3)nc(N3CCOCC3)n2)cn1; target or system = Ankyrin repeat and protein kinase domain-containing protein 1 (ANKK1, Homo sapiens, UniProt Q8NFD2); assay = enzyme activity; setting = 10 µM; how to read = baseline: untreated; quantity = remaining activity; result = 79%
Compound = C[C@H](Cn1cnc2c(N)ncnc21)OCP(=O)(O)O; setting = Simcyp input parameter; quantity = absorption rate constant; result = 1.03 h⁻¹
Compound = Cc1nn(C)cc1S(=O)(=O)NC(=O)c1ccc(-n2ccc(OCC(C)(C)C(F)(F)F)n2)nc1N1C[C@@H](C)CC1(C)C; quantity = absorption lag time; result = 2.17 h
Compound = CC1(C)CCC(CN2CCN(c3ccc(C(=O)NS(=O)(=O)c4ccc(NCC5CCOCC5)c([N+](=O)[O-])c4)c(Oc4cnc5[nH]ccc5c4)c3)CC2)=C(c2ccc(Cl)cc2)C1; assay = population pharmacokinetics; quantity = absorption rate constant; result = 0.155 h⁻¹
Compound = CC(C)(O/N=C(\C(=O)N[C@@H]1C(=O)N2C(C(=O)[O-])=C(C[n+]3ccccc3)CS[C@H]12)c1csc(N)n1)C(=O)O; target or system = Enterobacter cloacae; system = clinical isolate RKI-No_546/13; quantity = MIC; result = ≤ 2 µg/mL

For quick reference, copied from above:
Compound = CCC(C)n1ncn(-c2ccc(N3CCN(c4ccc(OCC5COC(Cn6cncn6)(c6ccc(Cl)cc6Cl)O5)cc4)CC3)cc2)c1=O (stereo not drawn); setting = first-order absorption model; quantity = absorption rate constant; result = 1.1 h⁻¹
